Published values of several laboratories.
Numbered parts are unrelated; each lists some results of a single study. Positions count from the first letter of the parent shown.

Study 1
Target: Histone acetyltransferase KAT6A, winged helix 2, GST fusion (KAT6A, Homo sapiens, UniProt Q92794, residues 85-181)
Method: protein binding microarray
Form: double-stranded DNA, one strand shown
Medium: in vitro
Concentration: not given
Setting: 8-mer, flanks averaged, mean of 2 arrays, mostly near background
Baseline: not given
Reading: higher = stronger binding
Endpoint: E-score
Construct (chain): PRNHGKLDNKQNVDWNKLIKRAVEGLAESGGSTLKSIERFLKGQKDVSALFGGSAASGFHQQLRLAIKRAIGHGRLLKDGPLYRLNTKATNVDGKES
Oligonucleotide = CGATTCAA; result = -0.105
Oligonucleotide = CAAAAGGC; result = 0.066
Oligonucleotide = CTTGTGGA; result = -0.0288
Oligonucleotide = AATCTCAC; result = -0.0274
Oligonucleotide = CCGACAGA; result = 0.25
Oligonucleotide = CACAGATA; result = -0.0559
Oligonucleotide = AGTAACCA; result = -0.101
Oligonucleotide = CATCCGAC; result = 0.178
Oligonucleotide = ACGAGGTA; result = -0.097
Oligonucleotide = AAGAGCCC; result = 0.109
Oligonucleotide = ACGTCTCT; result = -0.108
Oligonucleotide = CTCGGCGA; result = 0.242
Oligonucleotide = AACTAAGA; result = 0.01
Oligonucleotide = ATGGCCTC; result = -0.0505
Oligonucleotide = CCTCCCGA; result = 0.12
Oligonucleotide = ATCTAGCA; result = -0.0456
Oligonucleotide = ACTACTGA; result = 0.0161
Oligonucleotide = ACGGAGAA; result = -0.0339

Study 2
Target: CCND2, cyclin fold, Cln2 fusion (human)
Method: yeast growth competition, sequencing
Medium: yeast
Setting: weak parent motif
Baseline: not given
Reading: higher = stronger binding
Endpoint: normalised enrichment score
Starting sequence: SLBP docking peptide (human); ARYKRKLLINDFG
Change = G13M; result = 0.707
Change = Y3S; result = 0.577
Change = R5A; result = 0.181
Change = K4Q; result = 0.296
Change = L8I; result = 0.228
Change = Y3A; result = 0.573
Change = D11L; result = 0.0206
Change = Y3F; result = -0.054
Change = K6Q; result = 0.676
Change = K6H; result = -0.0835
Change = K4G; result = 0.044
Change = A1C; result = -0.216
Change = I9K; result = 0.316
Change = N10V; result = -0.007
Change = K4S; result = -0.0667

Further values, each from its own experiment
Molecule = AP1G1 (Homo sapiens, UniProt O43747); target or system = AP1B1 (Homo sapiens, UniProt Q10567); assay = cross-linking MS; conditions = hits only; endpoint = interaction screen; result = cross-linked
Molecule = PhoQ, residues 284 288 289 292 302 303 SLGVVW; target or system = PhoP, residues 12 14 15 18 19 LWHSL (Escherichia coli, UniProt P23836); assay = Sort-seq, refers to: YFP reporter; test system = E. coli; conditions = PhoQ-PhoP variant library, together with: 10 µM Mg2+; scale = baseline: high Mg2+ state, higher = stronger signaling; endpoint = fold induction; result = 2.36
Molecule = ARCN1 (Homo sapiens, UniProt P48444); target or system = COPA (Homo sapiens, UniProt P53621); assay = cross-linking MS; conditions = hits only; endpoint = interaction screen; result = cross-linked
Molecule = PNN (Homo sapiens, UniProt Q9H307); target or system = ACIN1 (Homo sapiens, UniProt Q9UKV3); assay = cross-linking MS; conditions = hits only; endpoint = interaction screen; result = cross-linked
Molecule = H1-3 (Homo sapiens, UniProt P16402); target or system = H3-5 (Homo sapiens, UniProt Q6NXT2); assay = cross-linking MS; conditions = hits only; endpoint = interaction screen; result = cross-linked

For quick reference, copied from above (study 2):
Change = K4S; result = -0.0667
Change = K6H; result = -0.0835
Change = Y3A; result = 0.573
